Results collected from several papers.
Parts stem from different laboratories: compare values within a part only. Positions count from the first letter of the parent shown.

Set 1
Target: Fragile X messenger ribonucleoprotein 1, C-terminal low-complexity region (Fmr1, Mus musculus, UniProt P35922)
Technique: RNA Bind-n-Seq
Form: RNA
Matrix: in vitro
Concentration: 200 nM
Setting: whole 134-nt RNA, ends assumed
With: 150 mM LiCl
Relative to: input library
Reading: higher = stronger binding
All molecules: 7-deaza-guanosine replaces G
All sequences stand within: GGGAGUUCUACAGUCCGACGAUC … UGGAAUUCUCGGGUGUCAAGG
Strand | log2 enrichment
AGAUGAACAAGAGAACUGGGCAACCCAUGAUCCACAUCUACCUGGACAAGGAAACAGGAAAGCCCAAAGGCGAUGCCACAGUGUCCUAUG | -1.12
UCCUGUGCUACACAUCGUAUGUACCGAAUCGGCCCCCGGGGCCCCCGGGGCCCCCGGGGAAAGUAUUAUGUUACGCCGUUCGGAUCUGCA | -2.97
UGGGAGGUGGAUUUUGUUUAUUUUUUUAGCUCAUUUCCAGGCGUGGGAAUUUUUUUUUAAUAUGUGUCAUGAAUAAAGUUGUUUUUGAAA | -0.988
AAGUCCUGUGCUACACAUCGUAUGUACCGAAUCGGGGAGGGGAGGGGAAAAAGGGGAAAGUAUUAUGUUACGCCGUUCGGAUCUGCACUU | 1.17
UCAAGUCCUGUGCUACACAUCGUAUGUACCGAAUCGGCCCGGGCCCGGGGCCCGGAAAGUAUUAUGUUACGCCGUUCGGAUCUGCACUUC | -1.7
CAAGUCCUGUGCUACACAUCGUAUGUACCGAAUCGGUUUUGGUUUUGGUUUUGGGGAAAGUAUUAUGUUACGCCGUUCGGAUCUGCACUU | -1.64
UCCUGUGCUACACAUCGUAUGUACCGAAUCGGUUUUUUUGGUUUUUUUGGGUUUUUUUGGAAAGUAUUAUGUUACGCCGUUCGGAUCUGC | -0.699
CCUCAAGUCCUGUGCUACACAUCGUAUGUACCGAAUCGGGAGGGGAGGAGGGGAAAGUAUUAUGUUACGCCGUUCGGAUCUGCACUUCCA | -0.923
CACAGACAACACGCACCCACACAGACACAGAGGGAAGGGGUUGCGAUGGGGACAGGGUGCACAGCAGGGCGGGGUAGGACCCCAGCCCCU | -1.28
UUAGGCACUUGUUGGGCUCAUCACCGUUGUGUGGAGUGGUCACUAGGAGUAUGCCAGAUGGAAGAACCAUUGUUAGUGAACGUGGACAAA | -0.599
CCUGUGCUACACAUCGUAUGUACCGAAUCGGGGAAAGGGGUUUUUUUGGGGUUUUUGGGGAAAGUAUUAUGUUACGCCGUUCGGAUCUGC | -0.536

Set 2
Target: TEF, bZIP domain (human)
Technique: DHFR protein complementation
Matrix: yeast
Setting: single substitutions, most at no-binding floor
Relative to: wild-type JUN-FOS pair
Reading: higher = stronger binding
Starting sequence: JUN, bZIP domain (human); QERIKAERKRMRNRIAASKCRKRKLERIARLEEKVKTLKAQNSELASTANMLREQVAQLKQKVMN; partner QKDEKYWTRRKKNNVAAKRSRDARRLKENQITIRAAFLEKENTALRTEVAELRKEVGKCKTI
Substitution | binding fitness [natural log]
V35M | -1.46
I28D | -1.48
S47A | -1.4
A49L | -1.31
N42S | -1.48
S47N | -1.33
K36E | -1.27
S43H | -1.48
V35Q | -1.49
E44G | -1.46
L52W | -1.48
R30L | -1.42
S47W | -1.3
T48M | -1.1

Set 3
Target: CCND1, cyclin fold, Cln2 fusion (human)
Technique: yeast growth competition, sequencing
Matrix: yeast
Setting: weak parent motif
Relative to: not given
Reading: higher = stronger binding
Starting sequence: SAMHD1 docking peptide (human); ASKSRVQLFKDDP; partner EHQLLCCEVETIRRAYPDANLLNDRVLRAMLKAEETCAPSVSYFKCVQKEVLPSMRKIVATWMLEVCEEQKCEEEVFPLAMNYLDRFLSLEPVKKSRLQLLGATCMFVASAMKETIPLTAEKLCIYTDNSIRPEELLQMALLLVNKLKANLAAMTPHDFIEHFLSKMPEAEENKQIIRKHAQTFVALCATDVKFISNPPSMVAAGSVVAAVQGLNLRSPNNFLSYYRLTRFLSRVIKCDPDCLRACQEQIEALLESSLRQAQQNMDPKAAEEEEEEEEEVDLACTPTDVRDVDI
Substitution | normalised enrichment score
R5N | 0.205
Q7N | 0.222
K10S | 0.614
K3L | 0.705
D12P | 0.484
Q7G | 0.208
S4W | 0.215
K3D | 0.902
S4T | 1.39
D11M | 0.394
R5D | 0.741
K3G | 0.692
L8R | -0.341
L8C | -0.222
F9K | -0.0944
L8M | 0.139
K3F | 0.728
R5T | 0.513
D12V | 0.717
S4N | 0.552
R5L | 0.0194
S4R | 0.0686

Set 4
Target: ABI1, truncated, D143A, DHFR fusion (Arabidopsis thaliana)
Technique: DHFR PCA, deep sequencing
Matrix: yeast
Setting: methotrexate growth selection, single substitutions
With: (+)-ABA 2500 µM
Relative to: wild-type fitted maximum
Reading: higher = stronger binding
Starting sequence: PYL1, truncated, DHFR fusion (Arabidopsis thaliana); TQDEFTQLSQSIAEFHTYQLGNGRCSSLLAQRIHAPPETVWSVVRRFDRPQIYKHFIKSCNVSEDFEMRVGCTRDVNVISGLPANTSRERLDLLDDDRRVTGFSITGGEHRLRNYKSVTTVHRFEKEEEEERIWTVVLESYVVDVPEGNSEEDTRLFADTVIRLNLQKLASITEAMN
Substitution | relative binding score [%]
H16K | 48.5
E14T | 86.5
W134I | 111
T17C | 102
S26T | 95.5
L94I | 110
V40N | -9.11
H110Y | 17.8
L29E | 62.7
T106W | 106
Y18C | 92.7
R69P | 70
S87W | -3.6
L82N | 49
R155L | 95.8
Q7R | 106
E38Y | 76.9
A13V | 102
H122G | 86.4
S59F | 90.1
V100S | 91.7
L164T | 99.1
N61M | 96.1
E147F | 90.3

Set 5
Target: RNA binding protein fox-1 homolog 2, RRM domain, GST-SBP tag (RBFOX2, Homo sapiens, UniProt O43251-10, residues 100-194)
Technique: RNA Bind-n-Seq
Form: RNA
Matrix: in vitro
Concentration: 365 nM
Setting: natural RNA segment, single round, ends assumed
Relative to: no-protein control
Reading: higher = stronger binding
All sequences stand within: GGGAGUUCUACAGUCCGACGAUC … UGGAAUUCUCGGGUGCCAA
Residues (chain): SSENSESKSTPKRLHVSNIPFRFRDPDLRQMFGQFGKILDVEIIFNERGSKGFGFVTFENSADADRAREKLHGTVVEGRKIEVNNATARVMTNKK
Strand | RBNS enrichment (R)
UCUACCACAAAUAUACUUACCCAAGGGCUAAUAGUAAUACUCGAUUAAAAAUGCAGAUGCCUUCUCUUUUGUGUAUUGCGUGUCUGGUCUCAUUCUGACUACAGAUAUGG | 0.425
UUCUCUACCCCUCCACCUUAAACAUAUAUUAUUAAAGACAGAAGAGAAAAUCCAACCCAUUGCAAGAAGCUCUUUGUGGGUGCCUGGUUACAUCGGAGCAGGGGAGCCUC | 1.28
CCCUACACUCUCAGUUUACAGAGGCCACUGGGCCUCUGGCUGCAGAAUACAAAGUCCCGGGCUGUUAGAGGAGUCCUUUCCUCUCUGCCUGCCCUUUCCUGUCCCUCCCU | 1.19
UUAGGGCAGUGACUGAGGUGGAAACCCAGCUCUUUAGACAGCUGUCAUCCUAGGAUAGCUUCCUGGAAGCAGAACCAAGAAGCCAGAAGGUUCUUCCUAGGGUGGCCUUG | 0.309
GAAUAUGGAAUGAGAACAUUCAUUAUUGAGGUUGUCCAAUGGCCAGGGUAUGCUUUCUAGAAAAUAUGCUGUUCUGUCCCAGAAUGACUGUGCAUAGGGUAUCCGUUUCA | 0.449
CACCGUGAGCUGUAGGAUCAGCUGGCUGGCUGGGUUGGUGAGUGCCUACCUUGAGGUCUCAUGAAAGCUCCUGGAGCUGUGUGGUUGUCUUUGGUGCUGUUAACCCUUGG | 0.596
UGCUCCCGCACUCUGAGAAGUGGGUCAGGUGAUGAUCCCUGCACUUGAUUGAGAUCAGAAUCCAUCAGGGUCUUAGACUCUGCCCCCCCUCACCCCACUCUCUUCCCAUG | 0.34
AUGUGCCUCUGCGGGGCAGGGCCUUCCUGGUUUUGUUCACUGCUGUACCCAGAUGCCUACAACCAUCCCUGCCACAUACAGGUGCUCAAUAAACACUUGUAGAGCAGAUG | 0.205
GGCCAUAUAACUACACAAAACUGACCAAUCUGGGUUGCCAAAGCAGCCAGGCUUAUGCUGAAACCGGGGAAGUCUGACAUAUGCAGGAAACUCUUUUGAAAUAACUUUGG | 0.286
GUAAUCUUCAAGUAUGUGCUAUUUUUUGUCCCUGUAUCUAAGUCAAAUCAGGAACUUUUUUCUAACAAUUUGCUUUUGAAACUUGAAGUCAAGGAAACAGUGUGGUGCAA | 0.909
CCUGUGAUUUAAAGUUUUACAAAAAGCAGAGCUUUUUCCUAAGUUACUUUUCAGUUAGGUAACUGUGUGAUCCAGUUCUUCCAGCUGCUUCUAUAAUGAGGCACAUAUUA | 0.424
UGCCGACUGAAGAGUGUGGGAUUUCCGAGGCCCAGGUGAGCACGUCCAUCUCAGGAGGCGUGGAGGGAAAAGACAUGUCAUGAAGGGUUUUUUUUAUGUGACUGAUUUUU | 0.697

Some of these lines once more (set 3):
Substitution | normalised enrichment score
K10S | 0.614
K3D | 0.902
F9K | -0.0944
L8C | -0.222
Q7N | 0.222
S4R | 0.0686
L8M | 0.139
Q7G | 0.208
S4N | 0.552
K3F | 0.728
